Measurements of several laboratories.
Each numbered part is a random draw from the data of one study; scales do not carry over between parts. Substitutions count along the parent as printed.

Series 1
Target: CCND2, cyclin fold, Cln2 fusion (human)
Technique: yeast growth competition, sequencing
Sample: yeast
Notes: weak parent motif
Baseline: not given
Direction: higher = stronger binding
Parent: RB1 docking peptide (human); PKPLKKLRFDIEG
`D10I`: “normalised enrichment score” -0.461.
Under “normalised enrichment score”, `K5V` is recorded as 0.0363.
`G13R`: “normalised enrichment score” 0.703.
`D10Q` — result for “normalised enrichment score”: 0.295.
`K2T`: “normalised enrichment score” 0.104.
`G13T`: “normalised enrichment score” -0.401.
`L4F` — result for “normalised enrichment score”: 0.517.
For `K6R`, “normalised enrichment score” read 0.351.
Under “normalised enrichment score”, `L4S` is recorded as 0.374.
For `K2I`, “normalised enrichment score” read 0.507.
For `K6M`, “normalised enrichment score” read 0.337.
For `K2M`, “normalised enrichment score” read 0.344.
For `P1F`, “normalised enrichment score” read 0.531.
`I11N`: “normalised enrichment score” 0.588.
`D10C` — result for “normalised enrichment score”: 0.0219.
`E12C`: “normalised enrichment score” 0.277.
For `F9C`, “normalised enrichment score” read 0.206.
For `L7P`, “normalised enrichment score” read 0.263.
For `P3L`, “normalised enrichment score” read 0.421.
`L4H` — result for “normalised enrichment score”: 0.165.
`G13V`: “normalised enrichment score” -0.0864.
For `L7F`, “normalised enrichment score” read 0.21.
`F9S`: “normalised enrichment score” 0.0318.
`K6F`: “normalised enrichment score” 0.0811.
Under “normalised enrichment score”, `F9Q` is recorded as 0.257.

Series 2
Target: Prothrombin, mature alpha-thrombin (F2, Homo sapiens, UniProt P00734)
Technique: aptamer microarray, sandwich
Molecule type: DNA with 2'F-ANA
Sample: in vitro
Concentration: 200 nM
Notes: whole 15-mer aptamer, many near background
Added: Cy3 exosite-II aptamer, 400 nM
Direction: higher = stronger binding
Strand: GGTTGGTGTGGTTGG
`2'F-ANA at 2 3 4 5 6 8 9 13` — result for “mean fluorescence intensity”: 59.7 a.u.
Under “mean fluorescence intensity”, `2'F-ANA at 1 3 4 6 11 12 13 15` is recorded as 241 a.u.
Under “mean fluorescence intensity”, `2'F-ANA at 2 3 4 6 10 11` is recorded as 229 a.u.
For `2'F-ANA at 2 9 10 11 13 15`, “mean fluorescence intensity” read 93.9 a.u.
`2'F-ANA at 1 4 5 6 7 9 10`: “mean fluorescence intensity” 50.8 a.u.
`2'F-ANA at 1 2 4 5 6 7 9 12` — result for “mean fluorescence intensity”: 138 a.u.
`2'F-ANA at 1 2 3 4 6 7 8 10 11 12 13` — result for “mean fluorescence intensity”: 73.2 a.u.
`2'F-ANA at 1 8 11 12 15`: “mean fluorescence intensity” 393 a.u.
`2'F-ANA at 3 6 8 10 11 12 13 14`: “mean fluorescence intensity” 361 a.u.
Under “mean fluorescence intensity”, `2'F-ANA at 1 4 5 6 7 9 10 13 14 15` is recorded as 47.4 a.u.
`2'F-ANA at 1 3 5 8 10 11 12`: “mean fluorescence intensity” 47.9 a.u.
`2'F-ANA at 1 2 6 8 9 10 11 12 13` — result for “mean fluorescence intensity”: 63.5 a.u.
For `2'F-ANA at 6 7 9 10 12 14`, “mean fluorescence intensity” read 109 a.u.
`2'F-ANA at 1 3 4 5 6 9 10 12 14`: “mean fluorescence intensity” 44.7 a.u.
`2'F-ANA at 2 3 4 5 6 7 8 9 11 12 14 15` — result for “mean fluorescence intensity”: 62.8 a.u.
Under “mean fluorescence intensity”, `2'F-ANA at 3 7 9 10 11 13 14` is recorded as 412 a.u.
For `2'F-ANA at 3 7 9 11 12 13`, “mean fluorescence intensity” read 1070 a.u.
Under “mean fluorescence intensity”, `2'F-ANA at 1 3 5 7 8 12 13 14 15` is recorded as 51.2 a.u.

Series 3
Target: RING finger protein unkempt homolog, zinc fingers 1-6, GST-SBP tag (UNK, Homo sapiens, UniProt Q9C0B0, residues 30-357)
Technique: RNA Bind-n-Seq
Molecule type: RNA
Sample: in vitro
Concentration: not given
Notes: RNA with constant flanks, human-mouse chimeric sites, ends assumed
Baseline: input RNA pool
Direction: higher = stronger binding
Constant ends, left off below: GGGAGUUCUACAGUCCGACGAUC … CAACAGAGGAUUGAGCAUCA
Target sequence (chain): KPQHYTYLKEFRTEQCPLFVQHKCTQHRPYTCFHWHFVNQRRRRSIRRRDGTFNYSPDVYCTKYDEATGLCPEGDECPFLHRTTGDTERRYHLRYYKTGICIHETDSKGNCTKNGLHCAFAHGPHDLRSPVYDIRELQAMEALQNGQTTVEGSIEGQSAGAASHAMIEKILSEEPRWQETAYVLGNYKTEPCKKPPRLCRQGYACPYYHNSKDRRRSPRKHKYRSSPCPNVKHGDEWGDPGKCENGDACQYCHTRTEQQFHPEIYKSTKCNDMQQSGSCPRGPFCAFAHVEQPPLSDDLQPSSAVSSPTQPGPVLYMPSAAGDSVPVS
With `UCCCAAAUCCAGCAGCUAGAAGGAGCCUUGAGACAAAGCCUGGAAAUACAGGGAAGGCGAUAACAUUGUACAUUGGUUUACAUUUUUCUCCUUGAAUGAUUUUUCUAGAGGUCAUAGUGC` the bound/input enrichment was 0.36 ratio.
`UGUAGUUGAUCCCCUGCUCAUUUUUCUCUUUUCUUUCUUUCCUUUAGGAAAAGCCUAAAGAUUAGACUGUAAGAAAAACAGAAGCCAUGUUUCGAAGACCUGUGUUACAGGUAUUUCGUC` has a bound/input enrichment of 0.0322 ratio.
`UACUCAACUUUCUUUCCACAUUUUGAAUUCCAAGACAUUAUUCCUCCAGAUGACUUCCUAACGAGUGAUGAAGAGCAAGAUUUGGUUUUAUUUGGAACUAUGAGAGGUCAUGUGGUUGGA` gave a bound/input enrichment of 0.185 ratio.
For `AGAUUCCCCCUCCUGAGACCUCCUCCGAAGUUGGAGUCUCUUACAGAUGCCUCAUCCCCUGUUAGCGUUUUGGUCUGGACCACACAACCUUGGACAAUUCCCGCCAACCAGGCAAUUUGC`, the bound/input enrichment was 0.912 ratio.
With `ACAGUUAUAUUGUUGAGUUUCAUUUUCAUAUAUUCUUGUAGUGUCUGCUUGCCUGUGUCUUUUAGUAAAAUAAAAUAAGCCUUUGAAAAUAUUUUAGCAUGGUAUUUAACAUUUUCUAAA` the bound/input enrichment was 3.61 ratio.
`AAAUCGUGUGUGUCCAAUAUUGAAAGUGCUUUAUCUACACUCCAAUAUGUAAGCAGCAUAGUAGUUUCUUUAGAGAAUAGGUCAGCCAUUGUAAAGUACAAUGCAAGCUUAGUCACUCCA` has a bound/input enrichment of 10.2 ratio.
The bound/input enrichment of `UCCUGGUCGUGUCCCAGUGCAGGACGAUGUGAACAAAAACUCAAAGCGGACCCUCUACUGUAGUUGAUGAUUCUCGAAAUGUGCUAUUAUUGUUUGUCUUUUUUUUUUUUUUUUUAAAGA` is reported as 1.57 ratio.
`UUAAUCCCCUUUACUGCUCCCCCACUUCUCAUGGUAAUAACAAAGUCUUAUAUCCCCAUAUUAGCUUUCACUCAGAUGGCUUAUGGAGCCGGUUUCCUAGCUUUCUUGGGUGGGAUCAGA` gave a bound/input enrichment of 0.455 ratio.

Series 4
Target: RNA binding protein fox-1 homolog 2, RRM domain, GST-SBP tag (RBFOX2, Homo sapiens, UniProt O43251-10, residues 100-194)
Technique: RNA Bind-n-Seq
Molecule type: RNA
Sample: in vitro
Concentration: 365 nM
Notes: natural RNA segment, single round, ends assumed
Baseline: no-protein control
Direction: higher = stronger binding
Constant ends, left off below: GGGAGUUCUACAGUCCGACGAUC … UGGAAUUCUCGGGUGCCAA
Target sequence (chain): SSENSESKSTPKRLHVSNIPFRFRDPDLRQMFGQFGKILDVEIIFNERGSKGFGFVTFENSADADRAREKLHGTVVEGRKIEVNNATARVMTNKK
`AAGACCCCAUGUCAAAAUUAUAUAUAUAUAUAUAAUGUAUAUAUAUACAAUAUGCUGGACAUGUGACUCAUGGCUAGAGAAUGUGUCUAGCAUGAUCGGGGACUAAGUUC`: “RBNS enrichment (R)” 1.32.
`UGGUGAACGCCUGGGACCAAGCCAUGUGGCGUUUUUUAUUUUGCCUUUCUGGAAGACUCAAGAUAUGUCUCUUCAUUCUCUCUCAGUAUUUGUUUACUUUGGUUUUUUUG`: “RBNS enrichment (R)” 0.546.
`AAAAGUAUAGUUUUAUAUUUGAAAUGUAUGCAAAUUAUGGCCAUAUGGCUGAUUGGAAUGUACUACUGUAAUAUAAAAAGUCACUGUAUUUGCAAUAAAUUCUUUUCUAU` — result for “RBNS enrichment (R)”: 1.31.
Under “RBNS enrichment (R)”, `GCGGCCCCUCCUCUGCUUCCCCCUGAACCCACCCCCCACGGAAACCAGCCCUGCGGGCUAAGCAGGUGCGACCCCAGCAAGAGGGGUGCUCUGGGACCAGACAUGAAGUG` is recorded as 0.423.
Under “RBNS enrichment (R)”, `GUAUCAGGUUGCUGGGGAGUUUCCACUCUUCUCUGGUGAUUGUUCCUUCCCUCCCUUCCUCUCCCACCAUGCGAUGAGCAUCCUUUCAGGCCAGUGUCUGCAGAGCCUCA` is recorded as 0.642.
`CCCUAUUGGGAUGGACCGCUGGACAGCAAUGCUCGAGUUUGUGAAUUUGGAGAGAUACUCAAAAGAGCUAAAACUGCAGCAUUUUACCUUUAAAUGCAGUGCCUAGAGAG`: “RBNS enrichment (R)” 0.622.
For `UCAGAGGGAGUGUGGAGGGAGGGACCCGGCCUCUCUGUUGUCAAAUUGAGGCCUCCAUGUGGGAAGUGUGAUUUCUGCUUUUGUGUCCCAUCCCCACCCCACCCCAUUAC`, “RBNS enrichment (R)” read 0.504.
Under “RBNS enrichment (R)”, `AGCAGUCCAGUCUAUAGGUGCUCUACUUAGCAUUCUUUUCAUGUGCUCCUGGUCUCUGUCUCACUCACCUACUUUCUACUACAUCCAACUCAACUCCCUGACACCCUAUC` is recorded as 1.32.
`UUAAGACUCACACUCCUGGCUCAGCAGUGGUUUUCCAGAAGGCCCAAAGAGCGGUGCCGGGCACCCCACGUCGCAGUGUCCGUUCCGGGCUUGGGAAGCUGGGGAGGUGG`: “RBNS enrichment (R)” 0.487.
`ACUAACAAACGAUAGCUGAUUGAAGGCAACAGGAAAAAAAAAAUCAAAUUGUCCUACUGACGUUGAAAGCAAACCUUUGUUCAUUCCCAGGGCACUAGAAUGAUCUUUAG` — result for “RBNS enrichment (R)”: 0.202.
For `ACACAUACACACACAGCCUUUCACUGGAAGCCAUGGGCUUCCAGGUUAAGUUCAGCCAAGGGACCCAAUGCAGACAUCCUUCGUGGACAGGGUUCAGCCUUGGGAGGCCA`, “RBNS enrichment (R)” read 0.853.
For `AAGAGAUUCUUCCACCUUACUCUGCAGCUGCCUCUGGAAGAACUUUGGGCUGCUGGGGCUGAGCUGUCUGCUUGAUGCUGACAGACUCCUAGUGUCAGCUCCCAGGCCGC`, “RBNS enrichment (R)” read 0.329.

Series 5
Target: Histone acetyltransferase KAT6A, winged helix 2, GST fusion (KAT6A, Homo sapiens, UniProt Q92794, residues 85-181)
Technique: protein binding microarray
Molecule type: double-stranded DNA, one strand shown
Sample: in vitro
Concentration: not given
Notes: 8-mer, flanks averaged, mean of 2 arrays, mostly near background
Baseline: not given
Direction: higher = stronger binding
Construct (chain): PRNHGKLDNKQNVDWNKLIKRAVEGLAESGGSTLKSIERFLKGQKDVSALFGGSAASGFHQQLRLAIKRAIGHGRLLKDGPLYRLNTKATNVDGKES
With `GCGTTTCC` the E-score was -0.142.
For `GGAGTCGA`, the E-score was -0.107.
With `GATACTGC` the E-score was -0.00941.
For `TCGGTTAA`, the E-score was 0.0433.
With `ACACCCAT` the E-score was -0.0348.
The E-score of `TCAAAACA` is reported as 0.151.
`AATGGAGC` has an E-score of 0.0527.
`AGAGGCTC` gave an E-score of -0.0293.
`CAAGAAAA` gave an E-score of 0.191.
For `ATTCTCAC`, the E-score was 0.0302.
The E-score of `ACAAGTGG` is reported as -0.21.
For `AAGAAACG`, the E-score was 0.14.
`CGAAACAA` gave an E-score of 0.0515.
`AACCGACC` has an E-score of 0.0502.
`CGTAGCCC` gave an E-score of 0.0278.
`CTTTGGTA` gave an E-score of -0.0982.
`AGTTCTAG` gave an E-score of 0.103.
`CTCAGACA` has an E-score of 0.0679.
`GGTGCTCA` has an E-score of 0.0811.
With `GCATTTAA` the E-score was 0.0843.
With `ACGCGTAA` the E-score was -0.279.
`CCTATCAG` has an E-score of -0.125.
`GATGAAGC` gave an E-score of -0.102.
With `CCATGCGA` the E-score was 0.168.
The E-score of `AGCCGTAC` is reported as 0.00449.

A few entries again (series 1):
`D10Q` — result for “normalised enrichment score”: 0.295.
For `K6R`, “normalised enrichment score” read 0.351.
`E12C`: “normalised enrichment score” 0.277.
`L4F` — result for “normalised enrichment score”: 0.517.
For `F9C`, “normalised enrichment score” read 0.206.
`G13R`: “normalised enrichment score” 0.703.
For `K2M`, “normalised enrichment score” read 0.344.
`D10I`: “normalised enrichment score” -0.461.
For `L7F`, “normalised enrichment score” read 0.21.
For `K6M`, “normalised enrichment score” read 0.337.
`K2T`: “normalised enrichment score” 0.104.
